# Published values collected from several papers.
# Each line is one published result; not all experiments were run side by side. ± marks the error that the study gave.
# UniProt P15328, sequence (whole entry, looked up): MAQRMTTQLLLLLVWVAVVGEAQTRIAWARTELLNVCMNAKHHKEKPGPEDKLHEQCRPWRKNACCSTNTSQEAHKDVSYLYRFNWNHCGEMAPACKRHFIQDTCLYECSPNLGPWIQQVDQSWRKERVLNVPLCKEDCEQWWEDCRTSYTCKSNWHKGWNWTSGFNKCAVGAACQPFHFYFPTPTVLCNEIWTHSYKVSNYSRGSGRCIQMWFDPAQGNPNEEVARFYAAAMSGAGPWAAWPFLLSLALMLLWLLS
# UniProt P22607, sequence (whole entry, looked up): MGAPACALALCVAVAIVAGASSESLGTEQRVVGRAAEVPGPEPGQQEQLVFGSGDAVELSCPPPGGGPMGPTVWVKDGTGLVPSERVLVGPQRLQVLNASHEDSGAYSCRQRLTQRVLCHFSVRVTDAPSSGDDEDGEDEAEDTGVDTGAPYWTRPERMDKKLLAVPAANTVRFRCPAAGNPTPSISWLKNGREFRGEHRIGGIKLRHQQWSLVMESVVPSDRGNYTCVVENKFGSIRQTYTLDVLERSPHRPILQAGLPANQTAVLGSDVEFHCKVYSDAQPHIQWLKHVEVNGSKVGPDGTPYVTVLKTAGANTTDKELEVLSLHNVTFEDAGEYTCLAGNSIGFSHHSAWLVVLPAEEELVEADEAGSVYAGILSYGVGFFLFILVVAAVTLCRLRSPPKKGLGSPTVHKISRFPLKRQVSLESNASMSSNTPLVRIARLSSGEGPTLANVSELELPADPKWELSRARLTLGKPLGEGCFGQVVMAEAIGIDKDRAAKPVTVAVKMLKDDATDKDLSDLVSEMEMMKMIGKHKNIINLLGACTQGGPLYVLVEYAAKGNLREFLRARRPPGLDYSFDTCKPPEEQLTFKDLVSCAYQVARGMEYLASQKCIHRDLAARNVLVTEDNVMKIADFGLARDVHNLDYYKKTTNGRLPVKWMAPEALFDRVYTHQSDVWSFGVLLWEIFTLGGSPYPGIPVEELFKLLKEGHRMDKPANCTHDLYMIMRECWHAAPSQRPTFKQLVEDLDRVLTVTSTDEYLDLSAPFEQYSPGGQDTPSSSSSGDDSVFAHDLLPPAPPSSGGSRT
# UniProt P46587, sequence (whole entry, looked up): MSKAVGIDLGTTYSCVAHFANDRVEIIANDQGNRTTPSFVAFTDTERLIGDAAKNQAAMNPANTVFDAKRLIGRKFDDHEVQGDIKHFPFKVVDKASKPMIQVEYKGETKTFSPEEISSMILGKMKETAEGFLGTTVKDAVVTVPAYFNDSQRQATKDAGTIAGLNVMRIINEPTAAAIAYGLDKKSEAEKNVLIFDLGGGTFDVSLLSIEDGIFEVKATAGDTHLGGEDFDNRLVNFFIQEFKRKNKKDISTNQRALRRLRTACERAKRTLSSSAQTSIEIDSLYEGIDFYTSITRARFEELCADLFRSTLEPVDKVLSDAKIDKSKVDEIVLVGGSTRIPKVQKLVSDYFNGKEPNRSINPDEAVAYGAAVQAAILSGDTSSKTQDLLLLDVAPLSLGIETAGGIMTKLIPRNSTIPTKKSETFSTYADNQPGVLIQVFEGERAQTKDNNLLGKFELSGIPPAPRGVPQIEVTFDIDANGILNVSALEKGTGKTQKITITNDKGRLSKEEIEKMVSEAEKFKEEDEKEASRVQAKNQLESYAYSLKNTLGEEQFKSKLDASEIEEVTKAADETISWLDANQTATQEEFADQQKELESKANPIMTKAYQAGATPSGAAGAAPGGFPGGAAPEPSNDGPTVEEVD
# UniProt P27467, sequence (whole entry, looked up): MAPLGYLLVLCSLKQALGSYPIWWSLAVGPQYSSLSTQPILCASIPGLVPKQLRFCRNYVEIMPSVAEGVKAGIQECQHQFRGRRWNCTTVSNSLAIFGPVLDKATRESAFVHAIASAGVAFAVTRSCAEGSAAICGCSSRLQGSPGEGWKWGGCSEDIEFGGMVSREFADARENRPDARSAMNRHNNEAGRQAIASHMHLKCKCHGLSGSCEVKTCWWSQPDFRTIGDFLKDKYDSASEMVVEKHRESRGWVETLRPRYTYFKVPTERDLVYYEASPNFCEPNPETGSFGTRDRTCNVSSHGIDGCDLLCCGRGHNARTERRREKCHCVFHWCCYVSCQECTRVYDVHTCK
# UniProt Q9H4B4, sequence (whole entry, looked up): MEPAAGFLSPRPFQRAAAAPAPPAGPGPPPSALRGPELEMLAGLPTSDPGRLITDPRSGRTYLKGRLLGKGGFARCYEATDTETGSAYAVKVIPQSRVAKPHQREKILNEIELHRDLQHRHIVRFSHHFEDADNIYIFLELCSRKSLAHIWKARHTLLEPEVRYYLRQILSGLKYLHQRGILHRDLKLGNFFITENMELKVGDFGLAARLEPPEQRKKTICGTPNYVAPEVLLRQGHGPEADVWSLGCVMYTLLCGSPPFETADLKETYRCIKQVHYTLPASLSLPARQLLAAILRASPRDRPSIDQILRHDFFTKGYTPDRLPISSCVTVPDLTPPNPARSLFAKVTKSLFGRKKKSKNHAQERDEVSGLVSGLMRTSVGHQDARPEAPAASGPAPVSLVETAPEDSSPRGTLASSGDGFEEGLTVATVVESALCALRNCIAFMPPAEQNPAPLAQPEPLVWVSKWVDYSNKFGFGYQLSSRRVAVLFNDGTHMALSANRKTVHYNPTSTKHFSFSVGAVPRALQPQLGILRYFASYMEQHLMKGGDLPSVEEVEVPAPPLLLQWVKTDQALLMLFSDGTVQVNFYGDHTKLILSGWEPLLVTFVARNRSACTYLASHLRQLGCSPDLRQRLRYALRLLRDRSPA
# UniProt Q9HB29, sequence (whole entry, looked up): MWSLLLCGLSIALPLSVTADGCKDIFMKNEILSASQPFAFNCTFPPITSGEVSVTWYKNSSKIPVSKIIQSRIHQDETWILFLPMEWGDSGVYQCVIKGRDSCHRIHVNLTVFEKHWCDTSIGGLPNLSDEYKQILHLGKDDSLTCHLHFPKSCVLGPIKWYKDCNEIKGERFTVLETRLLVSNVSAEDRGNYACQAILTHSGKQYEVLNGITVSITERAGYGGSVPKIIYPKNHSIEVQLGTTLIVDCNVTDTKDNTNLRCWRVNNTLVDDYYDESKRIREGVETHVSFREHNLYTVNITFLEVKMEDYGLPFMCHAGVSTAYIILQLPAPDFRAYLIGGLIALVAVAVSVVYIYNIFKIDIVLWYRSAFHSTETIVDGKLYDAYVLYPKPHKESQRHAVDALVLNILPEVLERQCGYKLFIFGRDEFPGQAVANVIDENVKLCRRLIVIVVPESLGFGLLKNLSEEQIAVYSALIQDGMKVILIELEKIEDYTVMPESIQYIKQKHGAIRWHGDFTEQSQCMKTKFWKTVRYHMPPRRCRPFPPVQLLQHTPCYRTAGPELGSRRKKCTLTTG
# UniProt A0A109QYD3, sequence (whole entry, looked up): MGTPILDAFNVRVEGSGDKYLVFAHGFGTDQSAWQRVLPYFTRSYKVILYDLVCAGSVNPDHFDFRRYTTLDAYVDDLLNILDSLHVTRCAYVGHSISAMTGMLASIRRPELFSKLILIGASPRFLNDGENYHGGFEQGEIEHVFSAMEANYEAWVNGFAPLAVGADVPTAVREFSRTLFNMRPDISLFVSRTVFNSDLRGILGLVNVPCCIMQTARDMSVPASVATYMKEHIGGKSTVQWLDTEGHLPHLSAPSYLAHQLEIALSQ
# UniProt P31554, sequence (whole entry, looked up): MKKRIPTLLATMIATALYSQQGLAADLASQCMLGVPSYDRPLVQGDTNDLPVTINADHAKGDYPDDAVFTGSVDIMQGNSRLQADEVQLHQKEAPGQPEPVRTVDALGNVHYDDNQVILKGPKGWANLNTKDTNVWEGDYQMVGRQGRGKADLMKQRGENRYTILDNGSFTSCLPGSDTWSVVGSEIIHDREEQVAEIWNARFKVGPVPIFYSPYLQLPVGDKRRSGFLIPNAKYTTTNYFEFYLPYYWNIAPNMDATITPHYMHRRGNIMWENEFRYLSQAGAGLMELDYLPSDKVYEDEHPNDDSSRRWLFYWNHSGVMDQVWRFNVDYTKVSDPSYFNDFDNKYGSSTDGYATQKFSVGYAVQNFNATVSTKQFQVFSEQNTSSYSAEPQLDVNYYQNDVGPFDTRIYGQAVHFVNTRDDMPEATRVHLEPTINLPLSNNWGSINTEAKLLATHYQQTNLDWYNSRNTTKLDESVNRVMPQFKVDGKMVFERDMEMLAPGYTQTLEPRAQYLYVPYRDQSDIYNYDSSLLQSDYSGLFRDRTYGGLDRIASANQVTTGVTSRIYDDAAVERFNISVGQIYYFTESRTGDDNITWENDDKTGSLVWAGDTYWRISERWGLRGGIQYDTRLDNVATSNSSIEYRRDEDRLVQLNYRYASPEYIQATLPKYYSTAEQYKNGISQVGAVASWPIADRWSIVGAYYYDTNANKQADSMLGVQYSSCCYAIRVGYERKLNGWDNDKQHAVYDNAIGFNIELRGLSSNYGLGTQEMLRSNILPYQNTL
# UniProt O66465, sequence (whole entry, unmodified, looked up): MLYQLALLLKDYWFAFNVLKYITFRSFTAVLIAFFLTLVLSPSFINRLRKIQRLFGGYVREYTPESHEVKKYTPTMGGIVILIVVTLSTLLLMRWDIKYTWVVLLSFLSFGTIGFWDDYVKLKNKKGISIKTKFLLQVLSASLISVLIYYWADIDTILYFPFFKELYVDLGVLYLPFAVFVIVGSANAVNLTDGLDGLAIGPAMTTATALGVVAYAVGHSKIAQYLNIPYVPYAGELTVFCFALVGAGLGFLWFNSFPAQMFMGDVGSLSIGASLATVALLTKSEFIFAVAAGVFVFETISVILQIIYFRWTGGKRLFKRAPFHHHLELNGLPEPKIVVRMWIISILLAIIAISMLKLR
# UniProt P0ADC1, sequence (whole entry, looked up): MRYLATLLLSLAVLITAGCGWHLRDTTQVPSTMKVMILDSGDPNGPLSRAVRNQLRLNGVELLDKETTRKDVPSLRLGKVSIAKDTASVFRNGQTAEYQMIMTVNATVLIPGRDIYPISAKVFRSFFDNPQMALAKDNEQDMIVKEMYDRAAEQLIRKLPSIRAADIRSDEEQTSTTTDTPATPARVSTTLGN
SMILES,target,assay,system,conditions,Kd [nM]
C[C@H](NC(=O)[C@H](Cc1c[nH]cn1)NC(=O)[C@H](CO)NC(=O)[C@H](CC(=O)O)NC(=O)CCCC[C@@H]1SC[C@@H]2NC(=O)N[C@@H]21)C(=O)N[C@@H](CCCCN)C(=O)N[C@@H](CCCNC(=N)N)C(=O)N[C@@H](Cc1c[nH]cn1)C(=O)N[C@@H](Cc1c[nH]cn1)C(=O)NCC(=O)N[C@@H](Cc1ccc(O)cc1)C(=O)N[C@@H](CCCCN)C(=O)N[C@@H](CCCNC(=N)N)C(=O)N[C@@H](CCCCN)C(=O)N[C@@H](Cc1ccccc1)C(=O)N[C@@H](Cc1c[nH]cn1)C(=O)N[C@@H](CCC(=O)O)C(=O)N[C@@H](CCCCN)C(=O)N[C@@H](Cc1c[nH]cn1)C(=O)N[C@@H](Cc1c[nH]cn1)C(=O)N[C@@H](CO)C(=O)N[C@@H](Cc1c[nH]cn1)C(=O)N[C@@H](CCCNC(=N)N)C(=O)NCC(=O)N[C@@H](Cc1ccc(O)cc1)C(=O)O,"Heat shock protein SSA2 (SSA2, Candida albicans, UniProt P46587)",FPLC gel filtration,,"pH 7.4, together with: ATPγS 1 mM",1300 ± 400
Nc1nc2ncc(CNc3ccc(C(=O)N[C@@H](CCC(=O)NCCOCCOCCNC(=O)CN4CCN5CCN(CC4)CC(=O)[O][Al]([F])[O]C(=O)C5)C(=O)O)cc3)nc2c(=O)[nH]1 [fluorine-18 labelled],"FOLR1 (Homo sapiens, UniProt P15328)","binding, radioligand saturation binding",KB and CAL-51 tumour xenograft homogenates,,~1
CSCC[C@H](NC(C)=O)C(=O)N[C@@H](Cc1ccccc1)C(=O)N[C@@H](CC(N)=O)C(=O)N[C@H]1CSCc2cc3cc(c2)CSC[C@H](NC(=O)[C@H]([C@@H](C)O)NC(=O)[C@H](Cc2c[nH]cn2)NC(=O)[C@H](CO)NC(=O)[C@H](Cc2ccc(O)cc2)NC(=O)[C@H](Cc2ccccc2)NC(=O)[C@@H]2CCCN2C(=O)[C@H](CC(C)C)NC(=O)[C@H](CC(C)C)NC1=O)C(=O)N[C@@H](CO)C(=O)N[C@H](C(=O)NCC(=O)N[C@@H](CO)C(=O)NCC(=O)N[C@@H](CO)C(=O)NCC(=O)N[C@@H](CO)C(=O)N[C@@H](CC(=O)O)C(=O)N[C@@H](Cc1ccc(O)cc1)C(=O)N[C@@H](CCCCN)C(=O)N[C@@H](CC(=O)O)C(=O)N[C@@H](CC(=O)O)C(=O)N[C@@H](CC(=O)O)C(=O)N[C@@H](CC(=O)O)C(=O)N[C@@H](CCCCN)C(N)=O)CSC3,"FGFR3 (Homo sapiens, UniProt P22607)","binding, BLI",,,76.1
CC[C@H](C)[C@H](NC(=O)[C@H](CO)NC(=O)[C@H](CO)NC(=O)[C@H](CCC(=O)O)NC(=O)[C@H](CCC(=O)O)NC(=O)[C@H](CCCCN)NC(=O)[C@H](CO)NC(=O)[C@@H](NC(=O)[C@H](CO)NC(=O)[C@H](CC(C)C)NC(=O)[C@H](Cc1ccccc1)NC(=O)[C@H](CCCNC(=N)N)NC(=O)[C@H](C)NC(=O)[C@H](Cc1ccccc1)NC(=O)[C@H](Cc1ccccc1)NC(=O)[C@@H]1CCCN1C(=O)[C@H](CC(C)C)NC(=O)[C@H](C)NC(=O)[C@H](CCCCN)NC(=O)CNC(=O)[C@H](CCC(N)=O)NC(=O)[C@H](CCC(N)=O)NC(=O)[C@H](CC(=O)O)NC(=O)[C@H](CC(N)=O)NC(=O)[C@@H]1CCCN1C(=O)[C@H](Cc1ccc(O)cc1)NC(=O)[C@H](C)NC(=O)[C@@H](N)CCSC)C(C)C)C(=O)N[C@@H](CCCCN)C(=O)N[C@@H](CO)C(=O)N1CCC[C@H]1C(=O)N[C@@H](CO)C(=O)N1CCC[C@H]1C(=O)N[C@@H](CC(=O)O)C(=O)N[C@@H](Cc1c[nH]cn1)C(=O)N[C@@H](CCC(=O)O)C(=O)N[C@H](C(=O)N[C@@H](CO)C(=O)N[C@H](C(=O)N[C@@H](CCCNC(=N)N)C(=O)N[C@@H](CCCCN)C(=O)N[C@@H](Cc1ccc(O)cc1)C(=O)N1CCC[C@H]1C(=O)N[C@@H](CO)C(=O)N[C@@H](CC(=O)O)C(=O)N[C@@H](Cc1c[nH]c2ccccc12)C(=O)N[C@@H](CCC(=O)O)C(=O)N[C@@H](CCC(=O)O)C(=O)N[C@@H](Cc1c[nH]c2ccccc12)C(=O)O)[C@@H](C)O)[C@@H](C)CC,"uncharacterized protein (Microcystis aeruginosa MRC, UniProt B2G3D0)",isothermal titration calorimetry,,"pH 8.0, 25 °C",112 ± 52
C[C@@H](O)[C@@H]1NC(=O)[C@H](CC(=O)O)NC(=O)CNC(=O)[C@H](CCC(N)=O)NC(=O)[C@@H]2CCCN2C(=O)[C@H](Cc2cnc[nH]2)NC(=O)[C@@H](N)CSSC[C@@H](C(=O)NCC(N)=O)NC1=O,"Streptavidin (Streptomyces avidinii, UniProt P22629)",,,,20700
CC(C)C[C@H](NC(=O)[C@@H]1CCCN1C(=O)CCOCCOCCOCCOCCOCCOCCOCCOCCNC(=S)Nc1ccc2c(c1)C(=O)OC21c2ccc(O)cc2Oc2cc(O)ccc21)C(=O)N[C@@H](Cc1cncn1CCCCCCCCc1ccccc1)C(=O)N[C@@H](CO)C(=O)N[C@H](C(N)=O)[C@@H](C)CP(=O)(O)O,"Serine/threonine-protein kinase PLK3, polo-box domain (PLK3, Homo sapiens, UniProt Q9H4B4)",,,,460 ± 99.2
CC(C)[C@@H]1NC(=O)[C@H](Cc2ccccc2)NC(=O)CSC[C@@H](C(N)=O)NC(=O)[C@H](CCC(=O)O)NC(=O)[C@H](CO)NC(=O)[C@H](Cc2c[nH]c3cccc(Cl)c23)NC(=O)[C@H](C2CCCCC2)NC(=O)[C@H](C(C)C)NC(=O)[C@H](Cc2ccc(O)cc2)NC(=O)[C@H](CC(=O)O)NC(=O)[C@H](Cc2c[nH]c3ccccc23)NC(=O)[C@H](Cc2ccc(N)nc2)NC(=O)[C@H](Cc2c[nH]c3ccc(Cl)cc23)NC(=O)[C@H](CCC(=O)O)NC1=O,"Interleukin-1 receptor-like 2, D1-D3 domains (IL1RL2, Homo sapiens, UniProt Q9HB29)",SPR,,IL-36R D1-D3 extracellular domain,0.66
CC(C)C[C@@H]1NC(=O)[C@H](Cc2ccc(O)cc2)NC(=O)[C@H](CCCCN)NC(=O)[C@H](CCCNC(=N)N)NC(=O)[C@@H](Cc2ccc(O)cc2)NC(=O)CSC[C@@H](C(=O)NCC(N)=O)NC(=O)[C@H](Cc2c[nH]c3ccccc23)NC(=O)[C@H](Cc2c[nH]c3ccccc23)NC(=O)[C@H](Cc2ccccc2)NC(=O)[C@H](CCCNC(=N)N)NC(=O)[C@H](CCC(=O)O)NC(=O)[C@H](Cc2ccc(O)cc2)NC1=O,"Protein Wnt-3a, with afamin (Mus musculus, UniProt P27467)","binding, SPR single cycle kinetics",immobilised mWnt3a–human afamin complex,25 °C,171
CC(C)C[C@@H]1NC(=O)[C@H](CC(C)C)NC(=O)[C@H](CC(N)=O)NC(=O)[C@@H]2CCCN2C(=O)[C@H](CC(C)C)NC(=O)[C@H](CC(C)C)NC(=O)[C@H](CC(C)C)NC(=O)[C@@H](NC(=O)[C@H](CO)NC(=O)[C@H](CC(N)=O)NC(=O)[C@@H](N)C(C)C)CSSC[C@@H](C(=O)NCC(=O)N[C@@H](CC(=O)O)C(=O)N[C@@H](CC(=O)O)C(=O)N[C@@H](CCCCNC(=O)CCCC[C@@H]2SC[C@@H]3NC(=O)N[C@@H]32)C(=O)NCCCCCC(=O)NCCCCCC(=O)NCCCCCC(=O)NCCCCCC(=O)NCCCCCC(=O)N[C@@H](CCCCNC(=O)CCCCc2cn(CCCC[C@H](NC(=O)N[C@@H](CCC(=O)O)C(=O)O)C(=O)O)nn2)C(=O)NCC(N)=O)NC(=O)CNC1=O,"FOLH1 (Homo sapiens, UniProt Q04609)",binding,,,40
"CC1=C[C@H](O/C=C2/C(=O)O[C@@H]3c4ccccc4C[C@H]23)OC1=O (single isomer, unassigned)","RMS3 (Lathyrus oleraceus, UniProt A0A109QYD3)","binding, fluorescence",,,15700
CC(C)CC(NC(=O)C(NC(=O)NC(C(=O)O)C(C)C)C1CCNC(=N)N1)C(=O)NCCCNC(C(=O)O)C(OC1OC(CN)C(O)C1O)C1OC(n2ccc(=O)[nH]c2=O)C(O)C1O (stereo not drawn),"mraY (Aquifex aeolicus, UniProt O66465, F262W)","binding, ITC",,,68.4
CC[C@H](C)[C@H](NC(=O)[C@@H](NC(=O)[C@@H]1CCCN1C(=O)[C@@H](NC(=O)[C@@H]1CCCN1C(=O)[C@H](CCCCN)NC(=O)[C@H](CCCCN)NC(=O)[C@H](CO)NC(=O)CNC(=O)CCOCCOCCOCCOCc1cn(CCCNC(=O)CCC2=[N+]3C(=Cc4c(C)cc(C)n4[B-]3(F)F)C=C2)nn1)C(C)C)[C@@H](C)CC)C(=O)N[C@@H](Cc1ccc(O)cc1)C(=O)N[C@H]1CSSC[C@@H](C(=O)N[C@@H](CCC(N)=O)C(=O)N[C@@H](CCCNC(=N)N)C(=O)N[C@@H](CCSC)C(=O)O)NC(=O)[C@H](CCCCN)NC(=O)CNC(=O)[C@H]([C@@H](C)O)NC(=O)[C@H](CCCNC(=N)N)NC(=O)[C@H](CCCNC(=N)N)NC(=O)[C@H](CC(N)=O)NC1=O,"lptE/lptD (Escherichia coli, UniProt P0ADC1+P31554)","binding, fluorescence polarization",,"pH 8.0, 20 °C",34 ± 5

# Repeated from above:
SMILES,target,assay,system,conditions,Kd [nM]
CC(C)C[C@@H]1NC(=O)[C@H](CC(C)C)NC(=O)[C@H](CC(N)=O)NC(=O)[C@@H]2CCCN2C(=O)[C@H](CC(C)C)NC(=O)[C@H](CC(C)C)NC(=O)[C@H](CC(C)C)NC(=O)[C@@H](NC(=O)[C@H](CO)NC(=O)[C@H](CC(N)=O)NC(=O)[C@@H](N)C(C)C)CSSC[C@@H](C(=O)NCC(=O)N[C@@H](CC(=O)O)C(=O)N[C@@H](CC(=O)O)C(=O)N[C@@H](CCCCNC(=O)CCCC[C@@H]2SC[C@@H]3NC(=O)N[C@@H]32)C(=O)NCCCCCC(=O)NCCCCCC(=O)NCCCCCC(=O)NCCCCCC(=O)NCCCCCC(=O)N[C@@H](CCCCNC(=O)CCCCc2cn(CCCC[C@H](NC(=O)N[C@@H](CCC(=O)O)C(=O)O)C(=O)O)nn2)C(=O)NCC(N)=O)NC(=O)CNC1=O,"FOLH1 (Homo sapiens, UniProt Q04609)",binding,,,40
CC[C@H](C)[C@H](NC(=O)[C@@H](NC(=O)[C@@H]1CCCN1C(=O)[C@@H](NC(=O)[C@@H]1CCCN1C(=O)[C@H](CCCCN)NC(=O)[C@H](CCCCN)NC(=O)[C@H](CO)NC(=O)CNC(=O)CCOCCOCCOCCOCc1cn(CCCNC(=O)CCC2=[N+]3C(=Cc4c(C)cc(C)n4[B-]3(F)F)C=C2)nn1)C(C)C)[C@@H](C)CC)C(=O)N[C@@H](Cc1ccc(O)cc1)C(=O)N[C@H]1CSSC[C@@H](C(=O)N[C@@H](CCC(N)=O)C(=O)N[C@@H](CCCNC(=N)N)C(=O)N[C@@H](CCSC)C(=O)O)NC(=O)[C@H](CCCCN)NC(=O)CNC(=O)[C@H]([C@@H](C)O)NC(=O)[C@H](CCCNC(=N)N)NC(=O)[C@H](CCCNC(=N)N)NC(=O)[C@H](CC(N)=O)NC1=O,"lptE/lptD (Escherichia coli, UniProt P0ADC1+P31554)","binding, fluorescence polarization",,"pH 8.0, 20 °C",34 ± 5
